# Experimental data pooled from the literature.
# Every numbered part comes from another study and shows a few of its results, in no order. Substitutions count along the parent as printed.

# Series 1
# Target: Interferon regulatory factor 5, full length, phosphomimetic (IRF5, Homo sapiens, UniProt Q13568-2, residues 1-514, S451D/S453D/S456D/S462D)
# Method: protein-binding microarray
# Form: double-stranded DNA, one strand shown
# Sample: in vitro
# Tested at: 940 nM top
# Setting: 60-bp whole probe
# Added: salmon DNA 0.4 mg/ml
# Relative to: random background probes
# Reading: higher = stronger binding
# Constant ends, left off below: GCCTAGCAC … GTCTTGATTCGCTTGACGCTGCTG
Strand,fitted relative affinity
TTACGTATCGACACTGGGTTAGTGCTA,3.14 z-score
CTGAGAATGGGGTTTGCAGCCGTGCTA,0.148 z-score
TTATGTCTCGGTTTCGGTTAGTGCTAG,10.3 z-score
GACGGTATCGGGAGTGGGGACGTGCTA,3.47 z-score
TTAGGACTACTTTTCCTTTAGTGCTAG,-0.151 z-score
GACGATTTCACACTGGAGACGTGCTAG,0.17 z-score
TTAGGTCTCGGTATCGGTTGGTGCTAG,7.03 z-score
TTAGAACTGCGGACTGGATTAGTGCTA,-0.663 z-score
TTAGGTATCGAACTGGGTTAGTGCTAG,2.95 z-score
ATTTCTTTCTAATTCAAAGTGTGCTAG,1.06 z-score
TCAGCTGTCCTTTGCAAACTGTGCTAG,-0.092 z-score

# Series 2
# Target: Prothrombin, mature alpha-thrombin (F2, Homo sapiens, UniProt P00734)
# Method: aptamer microarray, sandwich
# Form: DNA with 2'F-ANA
# Sample: in vitro
# Tested at: 200 nM
# Setting: whole 15-mer aptamer, many near background
# Added: Cy3 exosite-II aptamer, 400 nM
# Reading: higher = stronger binding
# Strand: GGTTGGTGTGGTTGG
Modification,mean fluorescence intensity
2'F-ANA at 2 3 7,874 a.u.
2'F-ANA at 8 12 13 15,677 a.u.
2'F-ANA at 1 2 4 6 8 15,181 a.u.
2'F-ANA at 3 5 9 11 14 15,54.5 a.u.
2'F-ANA at 2 3 8 10 11 13,324 a.u.
2'F-ANA at 1 3 8 11 12,522 a.u.
2'F-ANA at 1 2 3 5 10 11 14,44.5 a.u.
2'F-ANA at 2 3 4 5 6 7 8 13 14 15,77.2 a.u.
2'F-ANA at 2 7 9 10 11,128 a.u.
2'F-ANA at 3 4 6 7 8 9 10 13 15,209 a.u.
2'F-ANA at 1 6 7 8 9 11 13,152 a.u.
2'F-ANA at 2 5 7 9 11 13,52.1 a.u.
2'F-ANA at 1 2 5 6 7 9 10 11 12 15,50.4 a.u.
2'F-ANA at 1 2 3 4 5 7 8 9 10 12 13 14 15,49.3 a.u.
2'F-ANA at 2 3 4 6 10 13 15,178 a.u.
2'F-ANA at 3 5 6 7 10 12 13 14,50.3 a.u.
2'F-ANA at 2 7 8 9 10 11,128 a.u.

# Series 3
# Target: Histone acetyltransferase KAT6A, winged helix 1, GST fusion (KAT6A, Homo sapiens, UniProt Q92794, residues 1-85)
# Method: protein binding microarray
# Form: double-stranded DNA, one strand shown
# Sample: in vitro
# Tested at: not given
# Setting: 8-mer, flanks averaged, mean of 2 arrays, mostly near background
# Relative to: not given
# Reading: higher = stronger binding
# Construct (chain): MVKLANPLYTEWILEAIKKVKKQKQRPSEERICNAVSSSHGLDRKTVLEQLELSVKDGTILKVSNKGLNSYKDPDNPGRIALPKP
Strand,E-score
TATGAACA,-0.193
AAATCGTA,-0.0466
GTCGCGAA,0.172
CCGTGGGC,0.301
GGAAGAAA,-0.144
GTTGAAGA,-0.11
ATCAAACA,-0.293
AAACTTGT,-0.119
ATCGTTTG,-0.0872
AGTATGGG,-0.184
AGTTTCCC,-0.106
AGGCGTCG,0.208
AGCAGTGG,-0.0795
ACTCAATA,-0.198
CTCACCAG,-0.266
AGTCTCAG,-0.264
GGATTGCA,-0.00137
CTTTGAAA,-0.132
GTGCGTCA,0.102
ACTGTCAG,-0.03
GGCTTCCA,0.134
ATAAGTAA,-0.202
GGTGCCCA,-0.00671
CAACCGGG,0.242
ATTGCCCA,-0.181

# Series 4
# Target: RNA binding protein fox-1 homolog 2, RRM domain, GST-SBP tag (RBFOX2, Homo sapiens, UniProt O43251-10, residues 100-194)
# Method: RNA Bind-n-Seq
# Form: RNA
# Sample: in vitro
# Tested at: 365 nM
# Setting: natural RNA segment, single round, ends assumed
# Relative to: no-protein control
# Reading: higher = stronger binding
# Constant ends, left off below: GGGAGUUCUACAGUCCGACGAUC … UGGAAUUCUCGGGUGCCAA
# Residues (chain): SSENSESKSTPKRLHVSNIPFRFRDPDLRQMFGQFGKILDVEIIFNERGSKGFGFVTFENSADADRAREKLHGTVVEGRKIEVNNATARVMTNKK
Strand,RBNS enrichment (R)
GUGAAUUUUAACAAAUAUGACACAGAAAAGGUCAGAUGCUGUUGUAUAAAAUUUUUUACUAGUGUGUCUUAUAUAAUUCUUUCUUCUCAUUAAUUCAGUGCCUUUUUCCU,0.854
CUGGCCCCCUUGCUUGUGGCUAGGCCAGCCUAGGAUGUGGGUUCUGUGGAGGAGAGGCGGGGUAAUGGGGAGGCUGAGGGCACCUCUUCACUGCCCCUCUCCCUCAAGCC,2.75
GUGCCUGUCCAGCAGGGAGCUUGAAUUUAAGUUCCAUGUAUGAAGUCAUUGGCUCUAUCUGCAUUUUUCUGUCAUUCUCUUCAUUUGUUUUAAGGUGGAAAAUUUUCUUA,1.12
UGGCAGGGACCAACCAGGCUGCCUGUGCCCGUCUGCUGCCUCCGAGACACCAGAGGUCUGCUGCAGAGCCCCACCAAGAACCAAGAUGAAGAAAGCCCCUGAGAGAUGCA,22.5
CUUCAAGGAUGAUGUUAGAAAAAUGUGAUUUAACUAGAACUUGUUUGAUGUUAGCAAAUCAUGGAAUGUUCUAAGUCUCUGAGGGUUUACUGUGAAGUGUUGAGGACAGU,0.995
UUCCCUCUGGGUUCUCCUUUCCCCAGACAGCUGUAGGGGCACAUGGUAGGGAAGCAGCAUAGGCCCCCAGGGAAACGACUCCACAGCAGGGCCUUCAUGGAUCUCCAAGU,0.261
GCAGCUAUCUCGAGAGCCACUGCUAGAACACCUUUUCCUGGAGGCUGCCCCACCAAAUGCUCAACCUUAGGUGGAAUCUCCCUGGAACACAUACCAGGUCAGGGAGGGCC,0.456
CUCUGUGUGUGUAUGUGUGUGUUUAUAUGUGUAUGUGUGUGACAGAAAAAUCUGUAGAGAAGAGGCACAUCUAUGGCUACUGUUCAAAUACAUAAAGAUAAAUUUAUUUU,1.55
UCUGCCUGCCUUUGUACCUCACUCACCUCCACCGCUCUCCAGCCCCUCUGAUGGCCACUCAGAGAAUACCAUAAUAAACAUGGCUGAGGACCCAGGAGAGUUCACGGGAG,1.03
AUUUUUGGUAAGGAAUUCAUUUCACAGGUAGUGUUUCAGACUCUGAAAGCCCUGACUUGGUUCUUGGCUUCUACUGUACUAGUUACUAGUUACUGGUACUGUUGCCAAGC,0.258
AAUAAUUUUUAAAUCAUACCAAAAAUAGUAAGAAAAUAUGCAAACACUCUGUGAUCAAACUUAAAAGUCAUUGCCAUUCAUCAUUAAUAAAAGUUGCCAUUUCAACUACG,0.503
AAGUCCCAGUCACCUUCCUGGCCUCACUGUCCUCAGCUGUAACCUGGGCAUUUGAGAGGUACAGGCAGAAGAGAAGACAAUCAUGGUCUGAUUAGUUGAGUGACAGGAGU,0.309

# Series 5
# Target: CCNB1, cyclin fold, Cln2 fusion (human)
# Method: yeast growth competition, sequencing
# Sample: yeast
# Setting: weak parent motif
# Relative to: not given
# Reading: higher = stronger binding
# Starting sequence: CDC6 docking peptide (human); TLKGRRLVFDNQL
Substitution,normalised enrichment score
L2P,0.0859
L7T,-0.459
G4F,0.544
Q12R,0.0332
L7R,1.26
G4R,0.463
Q12M,0.374
F9M,0.359
V8Y,0.646
V8K,0.525
R5K,-0.365
Q12S,-0.0331
L7W,0.045
V8A,-0.102
L13E,0.389
R5D,0.182
L7N,0.402
T1N,-0.396
V8M,0.177
G4H,0.134
N11A,0.772
F9N,0.385
L2K,0.621
Q12L,1.1
F9C,0.221

# Series 6
# Target: ABI1, truncated, D143A, DHFR fusion (Arabidopsis thaliana)
# Method: DHFR PCA, deep sequencing
# Sample: yeast
# Setting: methotrexate growth selection, single substitutions
# Added: (+)-ABA 2500 µM
# Relative to: wild-type fitted maximum
# Reading: higher = stronger binding
# Starting sequence: PYL1, truncated, DHFR fusion (Arabidopsis thaliana); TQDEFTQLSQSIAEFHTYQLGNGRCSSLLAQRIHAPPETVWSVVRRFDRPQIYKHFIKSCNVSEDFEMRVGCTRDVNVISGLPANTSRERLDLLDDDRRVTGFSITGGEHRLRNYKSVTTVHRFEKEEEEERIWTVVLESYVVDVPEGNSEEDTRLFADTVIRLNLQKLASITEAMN; partner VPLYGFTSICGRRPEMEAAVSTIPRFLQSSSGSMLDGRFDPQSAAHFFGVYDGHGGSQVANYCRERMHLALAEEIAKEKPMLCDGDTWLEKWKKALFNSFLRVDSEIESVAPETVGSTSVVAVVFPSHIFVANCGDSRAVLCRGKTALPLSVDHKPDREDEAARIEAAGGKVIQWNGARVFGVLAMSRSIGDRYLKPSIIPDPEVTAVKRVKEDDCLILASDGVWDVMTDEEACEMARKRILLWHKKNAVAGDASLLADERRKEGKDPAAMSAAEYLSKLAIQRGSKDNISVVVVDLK
Substitution,relative binding score
S117Y,2.47%
Q7P,90.3%
E152F,92.6%
H16R,53.5%
F66L,93.7%
E4S,92.8%
Q31D,40.1%
G71I,16.7%
T1N,98.5%
G71P,85%
D65R,94.7%
L164P,45.9%
H34Y,98.7%
S59W,91.9%
I162L,91%
E89R,-6.55%

# Some of these lines once more (series 6):
Substitution,relative binding score
Q7P,90.3%
E152F,92.6%
H16R,53.5%
F66L,93.7%
E4S,92.8%
Q31D,40.1%
G71I,16.7%
T1N,98.5%
G71P,85%
D65R,94.7%
L164P,45.9%
H34Y,98.7%
S59W,91.9%
I162L,91%
E89R,-6.55%
